Experimental data from different studies.
Numbered parts are unrelated; each lists some results of a single study. Positions count from the first letter of the parent shown.

Sample 1
Target: Fragile X messenger ribonucleoprotein 1, C-terminal low-complexity region (Fmr1, Mus musculus, UniProt P35922)
Technique: RNA Bind-n-Seq
Molecule type: RNA
Medium: in vitro
Tested at: 200 nM
Notes: whole 134-nt RNA, ends assumed
Added: 150 mM KCl
Reference: input library
Reading: higher = stronger binding
Endpoint: log2 enrichment
All sequences stand within: GGGAGUUCUACAGUCCGACGAUC … UGGAAUUCUCGGGUGUCAAGG
GGAGUGCCGUGAGCAGGCCGCGGGAACGUCGCCGUCACCUUGUCUCGGGGCCUCGGCGCUGCUUCCCGCCAAAACACGUUUACCGCGCGC: -1.65
UAACUUUAGAGGAGGAUCUGAUGGAUAUGGCAGUGGACGUGGAUUUGGGGAUGGGUAUAAUGGGUAUGGAGGAGGACCUGGAGGUGGCAA: 0.21
UUCAUUCUUACUUUGAAUCUAGGAUUUUAUGGAAGACCUUGGGUUAUGGAACAGAGAAAAGAACUCUUUAGAAGGUAAAUCUUCAUUAUA: -2.09
CUGUGCUACACAUCGUAUGUACCGAAUCGGGGAAAGGGGAAAAAAAGGGGAAAAAAAGGGGAAAGUAUUAUGUUACGCCGUUCGGAUCUG: -0.395
AAGUCCUGUGCUACACAUCGUAUGUACCGAAUCGGUUUUUGGUUUUUUUGGUUUGGAAAGUAUUAUGUUACGCCGUUCGGAUCUGCACUU: -0.833
CAAGUCCUGUGCUACACAUCGUAUGUACCGAAUCGGGAAAGGGGAAAGGGAAAGGGAAAGUAUUAUGUUACGCCGUUCGGAUCUGCACUU: 0.391
CUCAAGUCCUGUGCUACACAUCGUAUGUACCGAAUCGGAAAGGAAAGGAAAGGGAAAGUAUUAUGUUACGCCGUUCGGAUCUGCACUUCC: -0.378
UUCUCUUCACUCCCACCAGUGCGGGUGGUCUUUGCAGUGACUAUGGAAGGCAGUGCACGGAAAGUCAUCACUGUCCGGUCAGCCCUCAUU: -0.526
CUGUGCUACACAUCGUAUGUACCGAAUCGGAAAAAAAGGGGAAAAAAAGGGGAAAAAAAGGAAAGUAUUAUGUUACGCCGUUCGGAUCUG: -0.778
CCUGUGCUACACAUCGUAUGUACCGAAUCGGGGCCCCCCGGCCCCCCGGGCCCCCCGGGGAAAGUAUUAUGUUACGCCGUUCGGAUCUGC: -0.357
UCAAGUCCUGUGCUACACAUCGUAUGUACCGAAUCGGGCCGGGCCGGGGCCGGGGAAAGUAUUAUGUUACGCCGUUCGGAUCUGCACUUC: 0.256
CUCAAGUCCUGUGCUACACAUCGUAUGUACCGAAUCGGUGGUUUUUGGAAAGGAAAGUAUUAUGUUACGCCGUUCGGAUCUGCACUUCCA: -0.0843
CAAAAUACCAAGGGAUUUAUAUGAGGAUGAGUUGGUGCCCCUUUUUGAGAAGGCCGGACCCAUUUGGGAUCUACGUCUUAUGAUGGAUCC: -0.525
GUCCUGUGCUACACAUCGUAUGUACCGAAUCAAAUUUUUAAAUUUUUAAAUUUUUAAAAAAGUAUUAUGUUACGCCGUUCGGAUCUGCAC: -1.16

Sample 2
Target: Max-binding protein MNT, bHLH-zipper, MAX partner unstated (MNT, Homo sapiens, UniProt Q99583, residues 220-300)
Technique: protein-binding microarray
Molecule type: double-stranded DNA, one strand shown
Medium: in vitro
Tested at: not given
Notes: k-mer, scored over probes, only values ≥0.25
Reading: higher = stronger binding
Endpoint: E-score
Target sequence (chain): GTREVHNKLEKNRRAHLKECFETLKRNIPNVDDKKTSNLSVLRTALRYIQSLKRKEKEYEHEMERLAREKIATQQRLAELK
ACCACGCC: 0.382
AGCGCATG: 0.42
ACGCACCC: 0.279
ATCATGTG: 0.443
ACGCGTCA: 0.285
CACCCCTC: 0.33
CACGAGAG: 0.284
ATCACGCC: 0.285
GCAGTCAC: 0.254
CCGCACGC: 0.389
CGTGATAC: 0.291
CCCACGCA: 0.294
ACGTGTTA: 0.453
GTGCAGAA: 0.256
CACCATGG: 0.291
ATGCGGTA: 0.327
ACGCGGTA: 0.347
AGTACACG: 0.366
CGTGCCAC: 0.39
GAACACGC: 0.419
CCGACCCC: 0.251
ATGTGGGA: 0.329
CATGGCAA: 0.347
AGCCACGC: 0.395
CCCGTGCA: 0.309

Sample 3
Target: TAR DNA-binding protein 43, full length, His tag (TARDBP, Homo sapiens, UniProt Q13148, residues 1-414)
Technique: RNA Bind-n-Seq
Molecule type: RNA
Medium: in vitro
Tested at: 20 nM
Notes: 6-mer, flanks averaged, single round
Added: 150 mM LiCl
Reference: input library
Reading: higher = stronger binding
Endpoint: 6-mer enrichment (R)
UAAGUU: 0.975
CGCCGA: 0.88
UGUACU: 0.919
CGUUCA: 0.848
UGUCUG: 1.11
GAACCC: 0.956
GCGGAU: 1
AAGCAG: 0.891
AGUGAA: 1.06
AAGCGG: 0.953
AGUCCG: 0.854
CCGAGC: 0.904
UGCCAU: 0.952
AGCGUU: 0.935
GGCUAA: 0.915
ACCCUG: 0.948
CCAACG: 0.846
CAUCCG: 0.826
CAUCGC: 0.837
GAUGAA: 0.992
CCAUAA: 0.877
UUUAUG: 1.24

Sample 4
Target: Sal-like protein 4, full length isoform B (SALL4, Homo sapiens, UniProt Q9UJQ4-2, residues 1-616)
Technique: universal PBM
Molecule type: double-stranded DNA, one strand shown
Medium: in vitro
Tested at: not given
Notes: 8-mer, flanks averaged, mean of replicates
Reading: higher = stronger binding
Endpoint: E-score
TATAGGCA: 0.208
AGAAAAAA: 0.226
CTCGTTAA: 0.0729
GCGGTACC: -0.271
GGCTTTCA: -0.0645
AACGTTTG: 0.115
GAAAGTTA: 0.148
AGGGCTGA: -0.162
ATTAGGAG: 0.108
ACGGGTAG: -0.157
GTGAGTAA: 0.0319
GGCCGATA: -0.0342
AAATACGG: 0.165
GGGCAATA: 0.0692
ATTGACAC: 0.0741
CCTTTTTA: 0.153
AGGTCCGG: -0.313
ATGGACCC: -0.14
GAGCGAAA: -0.0451
GCTCTCTA: -0.0824
AATTTGTA: 0.292
AGCTGCAC: -0.131

Sample 5
Target: RNA binding protein fox-1 homolog 2, RRM domain, GST-SBP tag (RBFOX2, Homo sapiens, UniProt O43251-10, residues 100-194)
Technique: RNA Bind-n-Seq
Molecule type: RNA
Medium: in vitro
Tested at: 365 nM
Notes: natural RNA segment, single round, ends assumed
Reference: no-protein control
Reading: higher = stronger binding
Endpoint: RBNS enrichment (R)
All sequences stand within: GGGAGUUCUACAGUCCGACGAUC … UGGAAUUCUCGGGUGCCAA
Residues (chain): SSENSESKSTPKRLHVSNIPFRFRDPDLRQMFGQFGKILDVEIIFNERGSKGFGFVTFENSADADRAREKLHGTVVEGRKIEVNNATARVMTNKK
GUUUUGUUUUCAAAGUGCUUACAAUGCAUGUAGACAUUGUUCUUUGUGGUCUGACUCUAUGAUCGAUCACAGUGACUUAGAUUCAGGAAAGAACAUUAACGUCACAAGUU: 0.507
GUGUGUGUAAAAUAUUUCCUAGGAAUAAAUUAGGCACUUUUUAGAAGCAAUGUUAAAUCAUUCAGGUUUUAUUUUCUGCCCUGAAGCAGAAAUUUAAAAAAUGAUAUUGG: 0.368
UUCUUUGUGUCAACAUGAACAAAUUUUAUUUGUAGGGGAACUCAUUUGGGGUGCAAAUGCUAAUGUCAAACUUGAGUCACAAAGAACAUGUAGAAAACAAAAUGGAUAAA: 0.871
UGCGGAAAGGUAACCACAAAGUUAUGAUGAACUGCAAACAUCCAAAGGAUGUGAAAGUUUUUAUAUGUAUAAUGUUUUAUACACUUUUUAACUGGUUGCACUACCCGUGA: 0.255
UGGUGCCAGAAGGCCUCAUCCUACAUCCUGCUCUCCUGGAUUGUUAAGACUAUAAAGUACUACUGUAGGAUUGCAAUUUCCAUUCUUUUAAAUGGGUUAAAAAGAUGUUA: 0.435
UUAUCAUUUCCAUCUGUCUGGUUAUGUCAAGUUAACUCAGAAAAAGAAGAGACACUGACCAACCCUGAGAGGCCCAACAGGGCAGAGAUGGAGGCCUGCCCAGAUGAAGA: 0.458
UUGUACAUUUUGUUUAAUAAAAGAUUAAAGAAUUUAUGAAGUUGGCUUGGACAAGUUUAAAUCCAUUUUUAAUGUGUUAAAUUUUUUUUGGAAUAAAUGUAUUCAUCUUC: 1.2
GGUCGUACACGAAUGUCUAAAGAGACAUUCAAAACUCGAAUAGGGUGCAGAGUAAUUUCUUACUGUGAGGAAUUGCCCAAUGUAUGGAAAGAUGCAUAGUUGGCUCUCAC: 0.34
UGCUGUUUUUUGUUUUUUAAGGUGAGUUCUCACUAUGUUUCUCAGACUGGUCUCGAACUCCUGGCCUCAAGCCAUCUUCCCGCCUCAGCCUCUCAAAUAGCUGGGCUUAC: 0.775
CACCUCAGCUACAGCCUGACAGGAUGCAUGAUGCGCGUCCUGCCCAGGGCCACAGCUGCCACCUGCCAGCCUCUGGAGCCACCACCAUUUGGGUCUCCUCAGGCCCCCGG: 0.275
GAAAGUUAACAUAGUGUGAAUGAAAGUCUGGCCAACAGAGCAGUAGAUGAUAUAACAAAGAAAGCAUGCUUUCUGAGGAGAUAGUGGGGAUAAUCCCUGAAGAGUUGGCA: 3.01
CUGAAAGAAGGGUUUUCUGUGCUGUGAAAUGCAUAGAACUUACACUUUGCCGUGCACGACUGUUCCUGCAAUUGAUAUUGUGUGAAACCUGGGAGGGUGGUCUUUGGGUG: 0.863

Sample 6
Target: CCND1, cyclin fold, Cln2 fusion (human)
Technique: yeast growth competition, sequencing
Medium: yeast
Notes: weak parent motif
Reference: not given
Reading: higher = stronger binding
Endpoint: normalised enrichment score
Starting sequence: ORC1 docking peptide (human); PRARKRLELGNLG; partner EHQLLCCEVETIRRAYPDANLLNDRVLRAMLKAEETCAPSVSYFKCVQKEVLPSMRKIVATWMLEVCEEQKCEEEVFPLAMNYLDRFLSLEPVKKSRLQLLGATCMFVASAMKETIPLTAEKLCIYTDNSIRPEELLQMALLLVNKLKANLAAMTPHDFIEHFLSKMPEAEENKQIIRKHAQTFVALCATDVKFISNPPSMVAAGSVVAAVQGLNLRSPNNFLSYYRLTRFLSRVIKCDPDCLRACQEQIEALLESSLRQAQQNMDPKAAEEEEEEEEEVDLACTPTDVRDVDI
PRARKRLELGNLS [G13S]: 0.401
PRYRKRLELGNLG [A3Y]: 0.27
PRARKRLELGNGG [L12G]: -0.301
YRARKRLELGNLG [P1Y]: 0.0448
PRARKRLELGNLM [G13M]: 0.752
PRARKRLELGNIG [L12I]: -0.409
PRAWKRLELGNLG [R4W]: 0.032
PRARKCLELGNLG [R6C]: -0.111
PRARKALELGNLG [R6A]: -0.119
PRVRKRLELGNLG [A3V]: -0.421
PRARKRLELGNVG [L12V]: -0.365
PRARKRLEDGNLG [L9D]: -0.0966
PRARKRLELGNLN [G13N]: -0.229
PRARKRLELGNLE [G13E]: 0.0362
PRARKRLELSNLG [G10S]: -0.53
PRARKRLELGKLG [N11K]: -0.221

For quick reference, copied from above (sample 5):
GUUUUGUUUUCAAAGUGCUUACAAUGCAUGUAGACAUUGUUCUUUGUGGUCUGACUCUAUGAUCGAUCACAGUGACUUAGAUUCAGGAAAGAACAUUAACGUCACAAGUU: 0.507
GUGUGUGUAAAAUAUUUCCUAGGAAUAAAUUAGGCACUUUUUAGAAGCAAUGUUAAAUCAUUCAGGUUUUAUUUUCUGCCCUGAAGCAGAAAUUUAAAAAAUGAUAUUGG: 0.368
UUCUUUGUGUCAACAUGAACAAAUUUUAUUUGUAGGGGAACUCAUUUGGGGUGCAAAUGCUAAUGUCAAACUUGAGUCACAAAGAACAUGUAGAAAACAAAAUGGAUAAA: 0.871
UGCGGAAAGGUAACCACAAAGUUAUGAUGAACUGCAAACAUCCAAAGGAUGUGAAAGUUUUUAUAUGUAUAAUGUUUUAUACACUUUUUAACUGGUUGCACUACCCGUGA: 0.255
UGGUGCCAGAAGGCCUCAUCCUACAUCCUGCUCUCCUGGAUUGUUAAGACUAUAAAGUACUACUGUAGGAUUGCAAUUUCCAUUCUUUUAAAUGGGUUAAAAAGAUGUUA: 0.435
UUAUCAUUUCCAUCUGUCUGGUUAUGUCAAGUUAACUCAGAAAAAGAAGAGACACUGACCAACCCUGAGAGGCCCAACAGGGCAGAGAUGGAGGCCUGCCCAGAUGAAGA: 0.458
UUGUACAUUUUGUUUAAUAAAAGAUUAAAGAAUUUAUGAAGUUGGCUUGGACAAGUUUAAAUCCAUUUUUAAUGUGUUAAAUUUUUUUUGGAAUAAAUGUAUUCAUCUUC: 1.2
GGUCGUACACGAAUGUCUAAAGAGACAUUCAAAACUCGAAUAGGGUGCAGAGUAAUUUCUUACUGUGAGGAAUUGCCCAAUGUAUGGAAAGAUGCAUAGUUGGCUCUCAC: 0.34
UGCUGUUUUUUGUUUUUUAAGGUGAGUUCUCACUAUGUUUCUCAGACUGGUCUCGAACUCCUGGCCUCAAGCCAUCUUCCCGCCUCAGCCUCUCAAAUAGCUGGGCUUAC: 0.775
CACCUCAGCUACAGCCUGACAGGAUGCAUGAUGCGCGUCCUGCCCAGGGCCACAGCUGCCACCUGCCAGCCUCUGGAGCCACCACCAUUUGGGUCUCCUCAGGCCCCCGG: 0.275
GAAAGUUAACAUAGUGUGAAUGAAAGUCUGGCCAACAGAGCAGUAGAUGAUAUAACAAAGAAAGCAUGCUUUCUGAGGAGAUAGUGGGGAUAAUCCCUGAAGAGUUGGCA: 3.01
CUGAAAGAAGGGUUUUCUGUGCUGUGAAAUGCAUAGAACUUACACUUUGCCGUGCACGACUGUUCCUGCAAUUGAUAUUGUGUGAAACCUGGGAGGGUGGUCUUUGGGUG: 0.863
